Measured values gathered from unrelated publications.
Every numbered part comes from another study and shows a few of its results, in no order. Changes are numbered by the printed parent chain.

Sample 1
Target: CCND3, cyclin fold, Cln2 fusion (human)
Method: yeast growth competition, sequencing
Matrix: yeast
Notes: weak parent motif
Reference: not given
Direction: higher = stronger binding
Starting sequence: CDKN1B docking peptide (human); PSACRNLFGPVDH; partner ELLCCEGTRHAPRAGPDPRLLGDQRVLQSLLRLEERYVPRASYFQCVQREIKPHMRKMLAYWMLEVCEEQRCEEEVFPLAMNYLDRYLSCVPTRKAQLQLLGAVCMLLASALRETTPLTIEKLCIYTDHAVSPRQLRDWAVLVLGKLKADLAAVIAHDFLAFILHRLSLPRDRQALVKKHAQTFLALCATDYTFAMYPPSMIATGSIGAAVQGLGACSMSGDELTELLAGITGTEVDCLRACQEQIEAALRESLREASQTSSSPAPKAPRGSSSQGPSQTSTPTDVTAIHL
Variant | normalised enrichment score
G9R | 0.0324
G9W | 0.123
F8P | 0.112
S2H | 0.136
G9I | 0.15
F8D | 0.0725
F8H | 0.126
P1C | 0.097
N6H | 0.113
A3S | 0.111
F8A | 0.125
H13F | 0.125
F8C | 0.0719
P10G | 0.144
A3T | 0.0719
N6A | 0.125
A3N | 0.103
S2W | 0.0751

Sample 2
Target: ABI1, truncated, D143A, DHFR fusion (Arabidopsis thaliana)
Method: DHFR PCA, deep sequencing
Matrix: yeast
Notes: methotrexate growth selection, single substitutions
Added: (+)-ABA 4.8 µM
Reference: wild-type fitted maximum
Direction: higher = stronger binding
Starting sequence: PYL1, truncated, DHFR fusion (Arabidopsis thaliana); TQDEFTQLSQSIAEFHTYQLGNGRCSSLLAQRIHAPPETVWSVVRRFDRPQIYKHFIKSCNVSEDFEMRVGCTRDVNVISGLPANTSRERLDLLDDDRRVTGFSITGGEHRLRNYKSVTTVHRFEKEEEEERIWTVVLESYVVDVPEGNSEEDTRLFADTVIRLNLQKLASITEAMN; partner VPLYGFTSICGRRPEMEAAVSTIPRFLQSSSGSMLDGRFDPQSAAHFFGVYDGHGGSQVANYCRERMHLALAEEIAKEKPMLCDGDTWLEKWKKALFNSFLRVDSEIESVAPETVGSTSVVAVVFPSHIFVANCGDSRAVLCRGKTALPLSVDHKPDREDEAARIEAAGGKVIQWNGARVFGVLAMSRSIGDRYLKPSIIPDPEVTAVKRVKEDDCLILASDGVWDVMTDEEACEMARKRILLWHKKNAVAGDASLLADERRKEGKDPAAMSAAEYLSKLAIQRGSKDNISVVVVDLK
Variant | relative binding score
I162F | -6.39%
F47S | -3.99%
V40A | -4.19%
W41H | 5.04%
V142C | 70%
V43N | -4.1%
S59T | 72.9%
V121F | -1.28%
C25G | -0.54%
S171E | 93%
S59H | 50%
P146T | 1.49%
L82Y | 20%
R123T | 68.2%
W134S | 88.8%

Sample 3
Target: Histone acetyltransferase KAT6A, winged helix 1, GST fusion (KAT6A, Homo sapiens, UniProt Q92794, residues 1-85)
Method: protein binding microarray
Molecule type: double-stranded DNA, one strand shown
Matrix: in vitro
Tested at: not given
Notes: 8-mer, flanks averaged, mean of 2 arrays, mostly near background
Reference: not given
Direction: higher = stronger binding
Residues (chain): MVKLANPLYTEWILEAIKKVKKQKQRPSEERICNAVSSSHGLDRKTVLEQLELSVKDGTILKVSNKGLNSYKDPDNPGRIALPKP
Sequence | E-score
CACAATCA | -0.308
GAGGTCTA | -0.133
AGACCCTC | -0.00949
CCTTAGCC | 0.054
ACAGTCCC | 0.114
CGCCAGAC | 0.188
CAGCGGGC | 0.237
CTCACCTC | -0.201
GAGACACA | -0.087
AAGGATTG | -0.203
ACAGACTG | -0.181
CTTAGCCC | 0.0338
ATGATTCC | 0.0396
CCCACAGA | -0.247
CCCAGTGC | -0.0926
AGTGCCAG | -0.18
GCTGTTCA | -0.157
CTCCCGGC | 0.328
ACTTGATA | -0.077
ATGATAAT | -0.0954
AGGAGAGA | -0.0524
CCACGGCG | 0.401

Single results of other studies
Substance | target | test | system | setting | scale | endpoint | value
PhoQ, residues 284 288 289 292 302 303 SLSLRL | PhoP, residues 12 14 15 18 19 VHTVL (Escherichia coli, UniProt P23836) | Sort-seq, measured: YFP reporter | E. coli | PhoQ-PhoP variant library, added: 10 µM Mg2+ | reference: high Mg2+ state, higher = stronger signaling | fold induction | 75.5

Some of these lines once more (sample 2):
Variant | relative binding score
S59T | 72.9%
C25G | -0.54%
W134S | 88.8%
V40A | -4.19%
W41H | 5.04%
V142C | 70%
L82Y | 20%
S59H | 50%
